Results from different studies.
Numbered parts are unrelated; each lists some results of a single study.
UniProt P52333, sequence (whole entry, looked up): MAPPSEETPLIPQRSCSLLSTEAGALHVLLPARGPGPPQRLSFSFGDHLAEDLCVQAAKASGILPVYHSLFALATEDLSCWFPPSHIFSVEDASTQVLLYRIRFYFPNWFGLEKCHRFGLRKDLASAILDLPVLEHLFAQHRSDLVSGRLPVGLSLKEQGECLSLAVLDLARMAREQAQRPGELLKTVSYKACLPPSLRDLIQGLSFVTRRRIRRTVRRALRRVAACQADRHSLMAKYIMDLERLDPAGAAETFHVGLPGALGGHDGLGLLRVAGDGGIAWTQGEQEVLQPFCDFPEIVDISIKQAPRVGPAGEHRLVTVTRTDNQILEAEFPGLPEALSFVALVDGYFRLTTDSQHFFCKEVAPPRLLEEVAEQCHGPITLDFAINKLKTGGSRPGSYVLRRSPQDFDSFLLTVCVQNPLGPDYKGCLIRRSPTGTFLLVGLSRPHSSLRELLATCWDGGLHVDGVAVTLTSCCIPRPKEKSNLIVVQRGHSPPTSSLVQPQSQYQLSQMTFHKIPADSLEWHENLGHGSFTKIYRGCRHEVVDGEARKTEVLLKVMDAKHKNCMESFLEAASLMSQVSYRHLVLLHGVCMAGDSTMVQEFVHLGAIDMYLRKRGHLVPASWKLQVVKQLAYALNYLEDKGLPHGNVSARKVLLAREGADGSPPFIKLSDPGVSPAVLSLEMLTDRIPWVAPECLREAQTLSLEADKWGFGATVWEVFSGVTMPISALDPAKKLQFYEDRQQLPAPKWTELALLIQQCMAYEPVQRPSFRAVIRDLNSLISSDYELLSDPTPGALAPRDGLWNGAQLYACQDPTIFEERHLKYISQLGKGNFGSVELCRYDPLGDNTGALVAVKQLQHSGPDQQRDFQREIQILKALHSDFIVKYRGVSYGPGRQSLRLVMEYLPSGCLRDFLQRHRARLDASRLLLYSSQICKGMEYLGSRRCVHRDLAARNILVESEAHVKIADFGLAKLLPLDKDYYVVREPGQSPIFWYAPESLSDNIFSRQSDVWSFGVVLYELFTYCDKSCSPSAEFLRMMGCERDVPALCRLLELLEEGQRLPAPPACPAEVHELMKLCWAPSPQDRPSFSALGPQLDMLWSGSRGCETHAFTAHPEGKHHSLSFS
UniProt P31749, sequence (whole entry, looked up): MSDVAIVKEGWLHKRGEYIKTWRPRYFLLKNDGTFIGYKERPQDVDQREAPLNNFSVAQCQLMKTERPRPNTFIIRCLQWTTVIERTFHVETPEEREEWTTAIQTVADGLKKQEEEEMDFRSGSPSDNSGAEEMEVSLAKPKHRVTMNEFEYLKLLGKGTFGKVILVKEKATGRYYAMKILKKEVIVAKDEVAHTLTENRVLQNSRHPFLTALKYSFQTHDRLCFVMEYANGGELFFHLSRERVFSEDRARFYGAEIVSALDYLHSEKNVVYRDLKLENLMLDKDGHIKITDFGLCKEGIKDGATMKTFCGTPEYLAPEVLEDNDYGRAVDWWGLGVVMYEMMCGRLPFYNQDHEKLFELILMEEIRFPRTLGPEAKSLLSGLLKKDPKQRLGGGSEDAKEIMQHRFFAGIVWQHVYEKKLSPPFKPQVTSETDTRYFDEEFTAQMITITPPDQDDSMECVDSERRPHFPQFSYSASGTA
UniProt Q15418, sequence (whole entry, looked up): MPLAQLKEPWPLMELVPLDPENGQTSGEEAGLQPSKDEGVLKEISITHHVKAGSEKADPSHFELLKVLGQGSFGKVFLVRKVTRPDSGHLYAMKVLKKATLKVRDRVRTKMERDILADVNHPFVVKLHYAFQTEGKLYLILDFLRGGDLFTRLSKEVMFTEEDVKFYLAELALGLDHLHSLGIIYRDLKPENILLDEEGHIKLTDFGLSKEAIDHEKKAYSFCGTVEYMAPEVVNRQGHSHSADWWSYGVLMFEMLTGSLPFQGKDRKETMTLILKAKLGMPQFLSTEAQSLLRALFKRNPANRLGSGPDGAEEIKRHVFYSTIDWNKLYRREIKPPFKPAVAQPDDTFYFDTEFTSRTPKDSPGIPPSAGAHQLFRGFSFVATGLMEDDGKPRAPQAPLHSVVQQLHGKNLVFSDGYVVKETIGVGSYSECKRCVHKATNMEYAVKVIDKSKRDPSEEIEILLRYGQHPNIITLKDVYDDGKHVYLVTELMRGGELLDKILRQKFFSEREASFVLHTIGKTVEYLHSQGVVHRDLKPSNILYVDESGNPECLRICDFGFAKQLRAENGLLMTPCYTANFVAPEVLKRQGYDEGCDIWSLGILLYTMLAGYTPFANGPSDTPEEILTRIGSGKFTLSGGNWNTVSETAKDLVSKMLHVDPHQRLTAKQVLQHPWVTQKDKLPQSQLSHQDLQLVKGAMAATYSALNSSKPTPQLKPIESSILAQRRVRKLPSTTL
UniProt Q9H2X6, sequence (whole entry, looked up): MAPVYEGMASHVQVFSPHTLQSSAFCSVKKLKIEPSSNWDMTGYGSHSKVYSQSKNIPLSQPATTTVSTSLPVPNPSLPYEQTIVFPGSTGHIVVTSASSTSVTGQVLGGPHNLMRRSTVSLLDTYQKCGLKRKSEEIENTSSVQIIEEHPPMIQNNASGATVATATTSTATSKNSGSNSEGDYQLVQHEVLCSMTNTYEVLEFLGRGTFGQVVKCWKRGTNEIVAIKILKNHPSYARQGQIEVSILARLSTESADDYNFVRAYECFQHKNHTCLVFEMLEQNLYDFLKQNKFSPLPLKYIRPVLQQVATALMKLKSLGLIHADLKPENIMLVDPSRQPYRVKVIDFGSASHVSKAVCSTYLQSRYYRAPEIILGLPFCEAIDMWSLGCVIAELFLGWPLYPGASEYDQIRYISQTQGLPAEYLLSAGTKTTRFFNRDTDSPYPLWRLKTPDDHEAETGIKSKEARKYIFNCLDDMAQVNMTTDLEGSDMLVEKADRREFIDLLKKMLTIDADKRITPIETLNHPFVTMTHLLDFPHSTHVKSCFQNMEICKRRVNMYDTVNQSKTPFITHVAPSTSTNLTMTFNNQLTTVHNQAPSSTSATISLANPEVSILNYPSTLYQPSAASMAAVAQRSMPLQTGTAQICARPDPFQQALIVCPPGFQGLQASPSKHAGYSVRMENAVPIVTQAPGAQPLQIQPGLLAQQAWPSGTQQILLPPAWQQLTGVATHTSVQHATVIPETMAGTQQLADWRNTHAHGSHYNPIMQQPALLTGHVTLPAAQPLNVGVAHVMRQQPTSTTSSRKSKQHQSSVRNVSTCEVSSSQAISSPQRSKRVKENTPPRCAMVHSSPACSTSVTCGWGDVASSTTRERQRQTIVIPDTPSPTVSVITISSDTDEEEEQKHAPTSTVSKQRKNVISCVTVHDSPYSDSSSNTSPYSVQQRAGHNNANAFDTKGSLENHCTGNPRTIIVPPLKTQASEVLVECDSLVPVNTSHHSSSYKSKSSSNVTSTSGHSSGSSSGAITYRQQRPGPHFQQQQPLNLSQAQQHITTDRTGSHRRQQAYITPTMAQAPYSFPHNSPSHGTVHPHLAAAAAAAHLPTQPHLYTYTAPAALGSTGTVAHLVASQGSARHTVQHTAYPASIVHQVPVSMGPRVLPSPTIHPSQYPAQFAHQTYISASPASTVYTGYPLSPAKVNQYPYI
UniProt P42336, sequence (whole entry, unmodified, looked up): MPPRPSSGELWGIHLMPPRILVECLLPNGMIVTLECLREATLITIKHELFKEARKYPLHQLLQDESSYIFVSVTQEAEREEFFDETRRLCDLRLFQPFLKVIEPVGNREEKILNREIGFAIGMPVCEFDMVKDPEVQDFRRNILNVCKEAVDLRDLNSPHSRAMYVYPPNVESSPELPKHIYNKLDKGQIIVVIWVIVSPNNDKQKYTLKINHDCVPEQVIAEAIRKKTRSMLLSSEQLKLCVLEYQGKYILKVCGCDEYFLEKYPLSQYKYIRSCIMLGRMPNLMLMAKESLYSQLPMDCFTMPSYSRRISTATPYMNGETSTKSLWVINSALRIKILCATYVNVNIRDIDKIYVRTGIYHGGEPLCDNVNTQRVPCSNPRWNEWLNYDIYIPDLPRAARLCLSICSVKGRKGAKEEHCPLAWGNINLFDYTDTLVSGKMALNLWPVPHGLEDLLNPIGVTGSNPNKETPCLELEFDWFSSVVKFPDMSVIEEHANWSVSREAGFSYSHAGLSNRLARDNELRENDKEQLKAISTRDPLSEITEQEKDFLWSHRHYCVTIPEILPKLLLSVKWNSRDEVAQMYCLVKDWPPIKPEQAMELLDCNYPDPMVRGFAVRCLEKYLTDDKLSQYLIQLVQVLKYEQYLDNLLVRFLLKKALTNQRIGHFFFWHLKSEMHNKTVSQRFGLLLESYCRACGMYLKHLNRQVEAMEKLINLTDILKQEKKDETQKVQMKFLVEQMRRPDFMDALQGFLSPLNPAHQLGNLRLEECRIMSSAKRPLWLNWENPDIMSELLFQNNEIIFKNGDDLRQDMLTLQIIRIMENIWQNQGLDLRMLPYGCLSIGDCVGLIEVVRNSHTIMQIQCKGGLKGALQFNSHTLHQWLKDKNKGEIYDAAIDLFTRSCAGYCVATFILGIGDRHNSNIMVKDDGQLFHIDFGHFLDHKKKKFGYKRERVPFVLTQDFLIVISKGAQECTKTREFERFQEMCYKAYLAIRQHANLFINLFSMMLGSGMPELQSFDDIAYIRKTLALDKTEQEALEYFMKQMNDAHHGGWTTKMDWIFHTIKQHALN
UniProt Q9H3Y6, sequence (whole entry, looked up): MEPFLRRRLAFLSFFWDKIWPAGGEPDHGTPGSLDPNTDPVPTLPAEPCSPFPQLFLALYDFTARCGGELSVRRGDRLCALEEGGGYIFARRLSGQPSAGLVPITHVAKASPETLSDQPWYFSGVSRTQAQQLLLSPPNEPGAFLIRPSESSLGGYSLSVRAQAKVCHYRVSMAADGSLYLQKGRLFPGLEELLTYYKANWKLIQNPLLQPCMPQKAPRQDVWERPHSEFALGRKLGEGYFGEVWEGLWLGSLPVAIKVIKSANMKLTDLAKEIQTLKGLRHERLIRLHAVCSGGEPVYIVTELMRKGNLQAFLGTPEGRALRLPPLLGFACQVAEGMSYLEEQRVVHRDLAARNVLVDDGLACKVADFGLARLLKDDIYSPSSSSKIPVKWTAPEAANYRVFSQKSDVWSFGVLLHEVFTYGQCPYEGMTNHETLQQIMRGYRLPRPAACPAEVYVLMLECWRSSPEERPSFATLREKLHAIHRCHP

Study 1 — method: phase 2a trial
Structure (SMILES): CC(C)n1cnc(-c2ccc(F)cc2)c1-c1ncc(C(=O)Nc2ccc(N3CCN(C)CC3)cc2)[nH]1
system | conditions | patients with TEAE
idiopathic pulmonary fibrosis patients | oral, 30 mg once daily, GLDH increased, grade 2 | 0%
patients with idiopathic pulmonary fibrosis | 30 mg once daily, skin papilloma, maximum intensity grade 1 | 0%
idiopathic pulmonary fibrosis patients | oral, 60 mg once daily, renal/urinary disorders, grade 1 | 2%
patients with idiopathic pulmonary fibrosis | 30 mg once daily, skin papilloma, maximum intensity grade 5 | 0%
idiopathic pulmonary fibrosis patients | oral, 30 mg once daily, ESR increased, grade 1 | 0%

Study 2 — method: competition with immobilised ligand; concentration: 1 µM
Structure (SMILES): O=C(N[C@H]1CCCCC/C=C\C2C[C@@]2(C(=O)O)NC(=O)[C@@H]2C[C@@H](Oc3ccncc3)CN2C1=O)OC1CCCC1 (some centres unmarked)
target | assay | remaining binding [%]
Hepatocyte growth factor receptor (MET, Homo sapiens, UniProt P08581) | cell-free assay | 60
Phosphatidylinositol 4,5-bisphosphate 3-kinase catalytic subunit alpha isoform (PIK3CA, Homo sapiens, UniProt P42336, E545A) | binding | 100
Ribosomal protein S6 kinase alpha-1, C-terminal kinase domain (RPS6KA1, Homo sapiens, UniProt Q15418) | binding | 82
Mitogen-activated protein kinase kinase kinase 6 (MAP3K6, Homo sapiens, UniProt O95382) | binding | 100
Receptor tyrosine-protein kinase erbB-3 (ERBB3, Homo sapiens, UniProt P21860) | binding | 84
MAP kinase-activated protein kinase 2 (MAPKAPK2, Homo sapiens, UniProt P49137) | binding | 89
Homeodomain-interacting protein kinase 2 (HIPK2, Homo sapiens, UniProt Q9H2X6) | binding | 100
Calcium/calmodulin-dependent protein kinase kinase 2 (CAMKK2, Homo sapiens, UniProt Q96RR4) | binding | 95
Serine/threonine-protein kinase PAK 1 (PAK1, Homo sapiens, UniProt Q13153) | binding | 89
Epidermal growth factor receptor (EGFR, Homo sapiens, UniProt P00533, G719S) | cell-free assay | 63
Mitogen-activated protein kinase kinase kinase kinase 4 (MAP4K4, Homo sapiens, UniProt O95819) | binding | 100
RAC-alpha serine/threonine-protein kinase (AKT1, Homo sapiens, UniProt P31749) | binding | 100
Serine/threonine-protein kinase ULK1 (ULK1, Homo sapiens, UniProt O75385) | binding | 100
Tyrosine-protein kinase Srms (SRMS, Homo sapiens, UniProt Q9H3Y6) | cell-free assay | 100
Tyrosine-protein kinase JAK3, JH1 (JAK3, Homo sapiens, UniProt P52333) | binding | 100
Dual specificity mitogen-activated protein kinase kinase 3 (MAP2K3, Homo sapiens, UniProt P46734) | binding | 80
Mitotic checkpoint serine/threonine-protein kinase BUB1 (BUB1, Homo sapiens, UniProt O43683) | binding | 100

Study 3 — method: competition protein-binding microarray; molecule type: double-stranded DNA, one strand shown; sample: in vitro; concentration: 2 µM; added: Cbf1 competitor, 0.05 µM; direction: higher = stronger binding; shared flanks, not repeated: … GTCTTGATTCGCTTGACGCTGCTG
Target: Phosphate system positive regulatory protein PHO4, full length, GST-tagged (PHO4, Saccharomyces cerevisiae, UniProt P07270, residues 1-312)
Notes: whole 60-bp probe, lowest competitor level
Construct (chain): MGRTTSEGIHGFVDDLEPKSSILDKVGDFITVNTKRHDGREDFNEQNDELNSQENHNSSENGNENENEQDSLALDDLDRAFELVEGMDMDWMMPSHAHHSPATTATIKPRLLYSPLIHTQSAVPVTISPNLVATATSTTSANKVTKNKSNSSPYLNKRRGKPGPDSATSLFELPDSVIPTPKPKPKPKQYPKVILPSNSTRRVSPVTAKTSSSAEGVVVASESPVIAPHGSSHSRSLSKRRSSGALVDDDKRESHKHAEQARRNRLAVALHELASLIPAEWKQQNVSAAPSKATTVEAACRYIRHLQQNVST
Strand | fluorescence intensity
TGCTTCTTTTTCCTTCACGTGTGGAGCCAAGTGCGG | 12200 a.u.
TGTTCACCCTCCTCTCACGTGTATCTGACTCGTATT | 14800 a.u.
TGCGCAACAACTTGTCACCCCACTTTATGTCTAGAA | 3480 a.u.
TTGGTACTTGTTCAACACGTTGCTTACGATCTTGGT | 12100 a.u.
CCTACCGCTTCTCCACACGTTTCTTAGATATGCGCG | 12200 a.u.
CATACCCAACCTTTTCACGTGCAGTAAGATATTTGT | 17100 a.u.
GCCTTGCAATTTATCACCGTGAGACATCCAGACAGT | 5250 a.u.
CGGGGTTAAGTTTGCGACGTGGGTGGCTTGCAGCAG | 6400 a.u.

Study 4 — Molecule: FQDSGYNELKSCSFDN; molecule type: peptide; direction: direction not given
tested on | assay | system | conditions | enrichment score
– | peptide binding | yeast competitive growth | added: B1-Cln2 chimera | 0.37
Saccharomyces cerevisiae | binding, yeast competitive growth sequencing | cyclin A1-Cln2 strain, peptide tiling library | – | 1.14
Saccharomyces cerevisiae | cell growth, competitive growth deep sequencing | – | peptide tiling library, added: cyclin F-Cln2 fusion | 0.667
Saccharomyces cerevisiae | pheromone growth arrest, yeast competitive growth sequencing | no Cln2 overexpression | peptide tiling library | 0.229
Saccharomyces cerevisiae | binding, competitive growth deep sequencing | cyclin E1-Cln2 fusion strain | peptide tiling library | 1.03

Some of these lines once more (study 4):
tested on | assay | system | conditions | enrichment score
– | peptide binding | yeast competitive growth | added: B1-Cln2 chimera | 0.37
Saccharomyces cerevisiae | binding, yeast competitive growth sequencing | cyclin A1-Cln2 strain, peptide tiling library | – | 1.14
Saccharomyces cerevisiae | cell growth, competitive growth deep sequencing | – | peptide tiling library, added: cyclin F-Cln2 fusion | 0.667
